Published values gathered from unrelated publications.
Lines come from different studies, so protocols differ.
MAPK8: Mitogen-activated protein kinase 8 (MAPK8, Homo sapiens, UniProt P45983)
Chain of UniProt P45983 (whole entry, looked up): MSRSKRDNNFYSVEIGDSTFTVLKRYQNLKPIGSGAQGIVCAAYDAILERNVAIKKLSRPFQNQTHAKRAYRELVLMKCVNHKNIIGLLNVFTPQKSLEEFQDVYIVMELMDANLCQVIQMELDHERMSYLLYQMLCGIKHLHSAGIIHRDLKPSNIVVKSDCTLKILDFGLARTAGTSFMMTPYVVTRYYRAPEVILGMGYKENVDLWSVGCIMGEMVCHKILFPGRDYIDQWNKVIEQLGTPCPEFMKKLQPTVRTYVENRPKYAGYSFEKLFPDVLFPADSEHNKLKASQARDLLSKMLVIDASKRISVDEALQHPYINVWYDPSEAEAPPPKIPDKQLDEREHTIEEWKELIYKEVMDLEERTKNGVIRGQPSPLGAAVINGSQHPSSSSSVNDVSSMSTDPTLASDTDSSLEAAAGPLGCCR
Cereblon/Ikaros: Cereblon/Ikaros (Homo sapiens, UniProt Q13422+Q96SW2)
MAOA: Amine oxidase [flavin-containing] A (MAOA, Homo sapiens, UniProt P21397)
Chain of UniProt P21397 (whole entry, looked up): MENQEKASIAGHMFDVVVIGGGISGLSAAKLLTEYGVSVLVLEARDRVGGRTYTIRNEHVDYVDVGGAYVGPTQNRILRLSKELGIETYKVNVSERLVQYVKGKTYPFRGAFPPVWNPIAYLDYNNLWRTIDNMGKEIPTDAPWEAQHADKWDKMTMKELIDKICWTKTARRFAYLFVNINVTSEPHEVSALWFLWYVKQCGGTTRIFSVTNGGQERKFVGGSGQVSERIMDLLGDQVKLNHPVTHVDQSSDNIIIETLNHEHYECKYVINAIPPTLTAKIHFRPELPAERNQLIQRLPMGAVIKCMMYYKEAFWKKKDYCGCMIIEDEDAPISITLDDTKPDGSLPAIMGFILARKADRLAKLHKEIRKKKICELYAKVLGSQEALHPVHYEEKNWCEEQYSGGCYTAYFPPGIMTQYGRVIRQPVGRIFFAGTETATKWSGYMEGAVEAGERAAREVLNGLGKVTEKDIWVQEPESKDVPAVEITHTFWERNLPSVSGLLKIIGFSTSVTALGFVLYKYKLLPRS
IL1RL2: Interleukin-1 receptor-like 2 (IL1RL2, Homo sapiens, UniProt Q9HB29)
Chain of UniProt Q9HB29 (whole entry, looked up): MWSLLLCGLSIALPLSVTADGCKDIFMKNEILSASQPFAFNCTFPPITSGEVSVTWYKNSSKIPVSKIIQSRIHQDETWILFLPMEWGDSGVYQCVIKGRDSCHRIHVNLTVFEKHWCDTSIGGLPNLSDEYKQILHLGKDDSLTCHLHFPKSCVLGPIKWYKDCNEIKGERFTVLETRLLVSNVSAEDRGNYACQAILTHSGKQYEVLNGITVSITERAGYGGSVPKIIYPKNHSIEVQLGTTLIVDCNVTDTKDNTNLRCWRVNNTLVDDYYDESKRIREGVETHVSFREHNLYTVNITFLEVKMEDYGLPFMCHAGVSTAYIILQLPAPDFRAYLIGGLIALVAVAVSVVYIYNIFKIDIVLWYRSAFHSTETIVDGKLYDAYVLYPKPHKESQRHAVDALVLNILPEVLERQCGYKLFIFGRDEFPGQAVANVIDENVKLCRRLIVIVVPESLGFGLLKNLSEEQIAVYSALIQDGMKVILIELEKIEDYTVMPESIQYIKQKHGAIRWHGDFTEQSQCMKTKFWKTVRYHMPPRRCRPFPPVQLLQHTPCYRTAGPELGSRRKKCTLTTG
Chain of UniProt Q13535 (whole entry, looked up): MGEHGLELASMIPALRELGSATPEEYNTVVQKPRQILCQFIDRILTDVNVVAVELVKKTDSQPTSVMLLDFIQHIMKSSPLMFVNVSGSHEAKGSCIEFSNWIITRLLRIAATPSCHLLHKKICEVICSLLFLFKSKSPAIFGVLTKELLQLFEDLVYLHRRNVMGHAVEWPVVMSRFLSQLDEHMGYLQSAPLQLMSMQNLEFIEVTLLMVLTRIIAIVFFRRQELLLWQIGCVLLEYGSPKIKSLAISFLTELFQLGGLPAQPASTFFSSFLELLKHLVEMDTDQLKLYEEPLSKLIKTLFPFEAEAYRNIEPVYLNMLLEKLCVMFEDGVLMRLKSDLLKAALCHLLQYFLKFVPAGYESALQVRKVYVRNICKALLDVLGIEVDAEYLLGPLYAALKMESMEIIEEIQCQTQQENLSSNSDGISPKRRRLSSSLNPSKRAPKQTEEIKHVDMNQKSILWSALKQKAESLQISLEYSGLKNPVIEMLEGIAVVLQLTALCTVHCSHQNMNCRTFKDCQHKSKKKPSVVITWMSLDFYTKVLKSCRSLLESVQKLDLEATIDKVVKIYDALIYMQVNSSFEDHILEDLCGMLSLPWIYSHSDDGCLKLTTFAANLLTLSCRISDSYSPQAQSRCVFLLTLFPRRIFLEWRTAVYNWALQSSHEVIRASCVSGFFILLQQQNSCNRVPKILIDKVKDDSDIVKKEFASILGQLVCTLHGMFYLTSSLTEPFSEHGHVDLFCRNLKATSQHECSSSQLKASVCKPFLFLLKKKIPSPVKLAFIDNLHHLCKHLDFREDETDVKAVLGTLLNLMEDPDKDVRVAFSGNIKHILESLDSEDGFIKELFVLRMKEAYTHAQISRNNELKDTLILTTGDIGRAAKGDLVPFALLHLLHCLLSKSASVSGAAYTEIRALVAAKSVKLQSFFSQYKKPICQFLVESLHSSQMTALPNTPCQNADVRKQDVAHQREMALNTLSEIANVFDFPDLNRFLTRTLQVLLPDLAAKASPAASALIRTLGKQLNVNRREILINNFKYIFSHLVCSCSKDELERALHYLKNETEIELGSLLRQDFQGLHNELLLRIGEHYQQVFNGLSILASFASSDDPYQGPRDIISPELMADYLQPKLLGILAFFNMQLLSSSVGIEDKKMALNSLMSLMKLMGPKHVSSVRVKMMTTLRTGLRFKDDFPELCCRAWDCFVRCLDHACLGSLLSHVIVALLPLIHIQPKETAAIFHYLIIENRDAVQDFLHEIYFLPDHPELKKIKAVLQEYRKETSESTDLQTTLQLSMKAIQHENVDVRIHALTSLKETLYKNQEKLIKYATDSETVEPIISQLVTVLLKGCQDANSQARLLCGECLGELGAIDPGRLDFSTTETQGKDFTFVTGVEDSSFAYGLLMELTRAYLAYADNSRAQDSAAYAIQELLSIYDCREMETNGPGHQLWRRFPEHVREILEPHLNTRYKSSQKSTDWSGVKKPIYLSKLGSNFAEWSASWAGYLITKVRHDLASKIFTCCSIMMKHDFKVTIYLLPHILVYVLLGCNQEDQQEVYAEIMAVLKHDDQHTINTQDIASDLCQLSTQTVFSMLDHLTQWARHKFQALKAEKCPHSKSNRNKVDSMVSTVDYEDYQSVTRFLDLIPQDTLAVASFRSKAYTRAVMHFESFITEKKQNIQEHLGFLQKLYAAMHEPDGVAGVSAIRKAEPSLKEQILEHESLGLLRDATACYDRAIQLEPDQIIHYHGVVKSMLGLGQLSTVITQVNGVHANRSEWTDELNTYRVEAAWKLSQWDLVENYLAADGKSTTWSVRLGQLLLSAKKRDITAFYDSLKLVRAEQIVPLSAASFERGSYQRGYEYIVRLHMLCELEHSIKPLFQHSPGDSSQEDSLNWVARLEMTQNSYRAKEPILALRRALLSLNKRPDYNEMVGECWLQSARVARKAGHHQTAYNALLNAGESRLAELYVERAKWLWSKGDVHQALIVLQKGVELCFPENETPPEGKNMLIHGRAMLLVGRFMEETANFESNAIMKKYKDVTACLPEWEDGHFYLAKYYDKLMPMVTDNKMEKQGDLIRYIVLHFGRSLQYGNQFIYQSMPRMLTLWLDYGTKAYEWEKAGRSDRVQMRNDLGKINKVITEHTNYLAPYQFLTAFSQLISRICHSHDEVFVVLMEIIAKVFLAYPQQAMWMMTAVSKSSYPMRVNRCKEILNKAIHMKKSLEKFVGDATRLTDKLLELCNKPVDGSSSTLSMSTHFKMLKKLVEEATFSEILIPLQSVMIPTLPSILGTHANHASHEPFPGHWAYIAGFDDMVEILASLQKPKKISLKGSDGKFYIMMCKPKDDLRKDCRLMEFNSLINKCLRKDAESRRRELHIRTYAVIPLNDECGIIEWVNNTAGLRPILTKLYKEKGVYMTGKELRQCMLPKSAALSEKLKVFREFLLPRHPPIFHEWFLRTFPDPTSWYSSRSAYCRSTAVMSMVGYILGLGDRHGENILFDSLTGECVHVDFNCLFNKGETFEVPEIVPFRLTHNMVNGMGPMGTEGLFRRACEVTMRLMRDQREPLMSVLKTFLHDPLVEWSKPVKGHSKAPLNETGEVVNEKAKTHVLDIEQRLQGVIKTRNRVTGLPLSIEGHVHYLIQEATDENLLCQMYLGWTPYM
Chain of UniProt P55210 (whole entry, looked up): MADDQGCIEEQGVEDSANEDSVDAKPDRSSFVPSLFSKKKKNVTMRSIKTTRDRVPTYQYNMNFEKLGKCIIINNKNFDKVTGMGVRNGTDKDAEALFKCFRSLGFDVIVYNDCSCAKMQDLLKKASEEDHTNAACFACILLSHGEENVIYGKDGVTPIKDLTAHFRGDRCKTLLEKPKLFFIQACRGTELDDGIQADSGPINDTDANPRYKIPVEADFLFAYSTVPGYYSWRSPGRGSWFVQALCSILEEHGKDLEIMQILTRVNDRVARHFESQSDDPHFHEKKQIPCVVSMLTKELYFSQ
Chain of UniProt P11802 (whole entry, looked up): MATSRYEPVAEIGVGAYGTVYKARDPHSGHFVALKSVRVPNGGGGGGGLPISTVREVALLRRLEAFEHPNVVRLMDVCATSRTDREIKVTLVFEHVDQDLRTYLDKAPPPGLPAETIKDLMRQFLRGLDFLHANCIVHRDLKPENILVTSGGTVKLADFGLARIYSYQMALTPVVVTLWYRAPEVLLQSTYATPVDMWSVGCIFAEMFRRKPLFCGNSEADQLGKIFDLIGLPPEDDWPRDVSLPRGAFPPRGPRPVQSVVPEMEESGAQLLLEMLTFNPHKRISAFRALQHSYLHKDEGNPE

O=C1Nc2ccc(I)cc2C1=Cc1cc(Br)c(O)c(Br)c1 — remaining activity (DNA cross-link repair 1A protein (DCLRE1A, Homo sapiens, UniProt Q6PJP8); exonuclease activity, inhibitor, fluorescence HTS; 10 µM, 80 min, together with: 8 nM 5P-FQ substrate): 51.4%
COC(=O)[C@@]1(C)C=C(C(=O)Nc2cccc(C(=O)Nc3ccc(Nc4nccc(-c5cccnc5)n4)c(C)c3)c2)C(=O)CC1 — remaining activity (MAPK8; enzyme activity, inhibitor; 0.0007527 µM, 0 h, unit not given, together with: GSH 10 mM pre-incubation; reference: vehicle): 1.03
Cc1cccc(-c2ccc3nc(NC(=O)C4CCCCC4)nn3c2)c1 — remaining activity (Protein kinase C zeta type (PRKCZ, Homo sapiens, UniProt Q05513); enzyme activity, Dundee kinase panel; 10 µM): 85%
O=C1CCC(N2Cc3c(OCc4ccc(CN5CCNCC5)cc4)cccc3C2=O)C(=O)N1 (centres unmarked) — remaining activity (Cereblon/Ikaros; protein level, degrader, western blot; NCI-H929; 10 nM, 4 h): 73.2%
COC(=O)[C@]1(C(C)C)C=C(C(=O)Nc2cccc(C(=O)Nc3ccc(Nc4nccc(-c5cccnc5)n4)c(C)c3)c2)C(=O)CC1 — remaining activity (MAPK8; kinase activity, inhibitor; 44.44 µM, unit not given, together with: 10 mM glutathione; reference: no inhibitor): 0.124
CN1C[C@@H](c2c[nH]c3cc(Br)ccc23)NC[C@@H]1c1c[nH]c2cc(Br)ccc12 — remaining activity (Cyclin-dependent kinase 4, with cyclin D3 (CDK4, Homo sapiens, UniProt P11802); enzyme activity, inhibitor; 10 µM): 98%
CC(C)c1ccc(/C=C/C(=O)c2cccc(C(F)(F)F)c2)cc1 — remaining activity (MAOA; enzyme activity, inhibitor; 10 µM): 90%
O=C1CCC(N2C(=O)c3cccc4c(Cc5cnn(C6CCN(C(=O)C7(O)CC7)CC6)c5)ccc2c34)C(=O)N1 (centres unmarked) — remaining activity (Cereblon/Ikaros; protein level, degrader, western blot; NCI-H929; 100 pM, 4 h): 79.6%
CNC(=O)C[C@H](Cc1ccc(C#N)cc1)NC(=O)c1cc(-c2ccc(CN[C@H](C)c3ccc(C)cc3)o2)ccc1Cl — remaining activity (Serine/threonine-protein kinase ATR (ATR, Homo sapiens, UniProt Q13535); enzyme activity, KinaseProfiler panel; 1 µM): 98%
N#Cc1cnc2sc(C(=O)O)cc2c1N1CCc2[nH]nc(C(=O)N[C@@H](CC(=O)NCCOCCN3CCOCC3)c3cccc(Br)c3)c2C1 — remaining activity (IL1RL2; SEAP reporter gene, antagonist; HEK-Blue IL-36R cells; 0.015 µM, 6 h, together with: IL-36 0.003 ng/mL; reference: untreated): 90.2%
COC1CN([C@H]2CC[C@H]([C@@]3(C)Oc4c(Cl)cc(C(=O)NCc5c(SC)cc(C)[nH]c5=O)c(C)c4O3)CC2)C1 — log2 fold change (RNA-seq, refers to: IRF6; human, whole blood; dose not given, 24 h; reference: pretreatment baseline): 1.11
CC(C)(O)C(=O)N1CCC(n2cc(Cc3ccc4c5c(cccc35)C(=O)N4C3CCC(=O)NC3=O)cn2)CC1 (centres unmarked) — remaining activity (Cereblon/Ikaros; protein level, degrader, western blot; NCI-H929; 100 pM, 4 h): 101%
CC(C)c1ccc(/C=C/C(=O)c2ccc(Br)cc2)cc1 — remaining activity (MAOA; enzyme activity, inhibitor; 10 µM): 32.4%
O=C=[N][Ru-4]123([n]4c5ccc(O)cc5c5c6c(c7cc(F)c[n+]1c7c54)C(=O)NC6=O)[S+]1CC[S+]2CC[S+]3CC1 (centres unmarked) — remaining activity (Mitogen-activated protein kinase 1 (Mapk1, Mus musculus, UniProt P63085); enzyme activity; 100 nM, mouse enzyme, together with: 10 µM ATP; reference: untreated): 95%
O=C1CCC(N2Cc3c(OCc4cn(C5CCNCC5)nn4)cccc3C2=O)C(=O)N1 (centres unmarked) — remaining activity (Cereblon/Ikaros; protein level, degrader, western blot; NCI-H929; 10 nM, 4 h): 69.8%
C[C@](C(=O)NC1CCOCC1)(c1cncnc1)N(C(=O)[C@H](F)Cl)c1ccc(OC(F)(F)Cl)cc1 — remaining activity (Caspase-7 (CASP7, Homo sapiens, UniProt P55210); enzyme activity, inhibitor; 10 µM): 110%
O=C1CCC(N2C(=O)c3cccc4c(Cc5cnn(C6CCN(C(=O)CS)CC6)c5)ccc2c34)C(=O)N1 (centres unmarked) — remaining activity (Cereblon/Ikaros; protein level, degrader, western blot; NCI-H929; 10 nM, 4 h): 81.3%
CC(C)c1ccc(/C=C/C(=O)c2ccc(F)cc2)cc1 — remaining activity (MAOA; enzyme activity, inhibitor; 10 µM): 51.4%
CC(C)[C@@H]1NC(=O)[C@H](Cc2ccccc2)NC(=O)CSC[C@@H](C(N)=O)NC(=O)[C@H](CCC(=O)O)NC(=O)[C@H](CO)NC(=O)[C@H](Cc2c[nH]c3cccc(Cl)c23)NC(=O)[C@H](C2CCCCC2)NC(=O)[C@H](C(C)C)NC(=O)[C@H](Cc2ccc(O)cc2)NC(=O)[C@H](CC(=O)O)NC(=O)[C@H](Cc2c[nH]c3ccccc23)NC(=O)[C@H](Cc2ccc(N)nc2)NC(=O)[C@H](Cc2c[nH]c3ccc(Cl)cc23)NC(=O)[C@H](CCC(=O)O)NC1=O — remaining activity (IL1RL2; reporter gene (SEAP), inhibitor, HEK-Blue IL-36R reporter; HEK-Blue IL-36R cells; 0.015 µM, 6 h, together with: IL-36γ 30 ng/mL): 107%
O=C1CCC(N2C(=O)c3cccc4c(Cn5cc(C6CCNCC6)nn5)ccc2c34)C(=O)N1 (centres unmarked) — remaining activity (Cereblon/Ikaros; protein level, degrader, western blot; NCI-H929; 1 nM, 4 h): 87.5%
COC(=O)c1ccc2c(c1)nc(NC(=O)c1ccccc1)n2CCCc1ccccc1 — remaining activity (Histone deacetylase 4 (HDAC4, Homo sapiens, UniProt P56524); enzyme activity, inhibitor; 10 µM): 83%
O=C1CCC(N2C(=O)c3cccc4c(Cc5cnn(C6CCN(C(=O)C7(O)CCC7)CC6)c5)ccc2c34)C(=O)N1 (centres unmarked) — remaining activity (Cereblon/Ikaros; protein level, degrader, western blot; NCI-H929; 1 nM, 4 h): 19.2%
COc1ccccc1-c1ccncc1C(=O)Nc1nnc(OCc2ccc(Cl)cc2)s1 — remaining activity (DNA polymerase theta, helicase domain (POLQ, Homo sapiens, UniProt O75417); ATPase activity, ADP-Glo; 1.9 µM; reference: 0 µM cpd): 18%
